Published values pooled from the literature.
Each numbered part is a random draw from the data of one study; scales do not carry over between parts. Substitutions count along the parent as printed.
Chain of UniProt Q13422 (whole entry, looked up): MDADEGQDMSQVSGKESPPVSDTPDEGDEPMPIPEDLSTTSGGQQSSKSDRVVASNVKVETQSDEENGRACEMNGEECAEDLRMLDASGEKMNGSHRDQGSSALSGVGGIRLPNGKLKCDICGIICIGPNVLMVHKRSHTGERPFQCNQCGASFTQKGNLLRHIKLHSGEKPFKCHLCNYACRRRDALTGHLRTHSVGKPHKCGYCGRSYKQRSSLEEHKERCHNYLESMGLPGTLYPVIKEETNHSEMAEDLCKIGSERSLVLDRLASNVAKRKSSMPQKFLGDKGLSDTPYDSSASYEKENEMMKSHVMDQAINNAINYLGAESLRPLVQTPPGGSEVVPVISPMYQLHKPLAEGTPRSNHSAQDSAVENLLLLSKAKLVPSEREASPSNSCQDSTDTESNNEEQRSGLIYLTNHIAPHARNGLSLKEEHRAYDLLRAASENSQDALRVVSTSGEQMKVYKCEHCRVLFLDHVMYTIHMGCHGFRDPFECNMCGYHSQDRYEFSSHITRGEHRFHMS
Chain of UniProt P11229 (whole entry, looked up): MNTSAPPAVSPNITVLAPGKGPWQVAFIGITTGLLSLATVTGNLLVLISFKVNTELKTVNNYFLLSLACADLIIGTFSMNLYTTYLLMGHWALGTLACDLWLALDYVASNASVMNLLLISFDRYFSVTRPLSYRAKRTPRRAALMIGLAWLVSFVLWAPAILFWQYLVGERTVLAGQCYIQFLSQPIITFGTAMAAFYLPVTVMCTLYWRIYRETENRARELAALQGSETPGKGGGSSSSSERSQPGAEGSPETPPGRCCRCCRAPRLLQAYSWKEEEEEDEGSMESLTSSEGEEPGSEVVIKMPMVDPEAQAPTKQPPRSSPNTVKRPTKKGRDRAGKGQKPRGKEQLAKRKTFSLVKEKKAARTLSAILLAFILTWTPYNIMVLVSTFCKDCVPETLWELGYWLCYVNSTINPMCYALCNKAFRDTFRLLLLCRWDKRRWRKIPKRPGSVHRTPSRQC

Sample 1
Target: CCNA2, cyclin fold, Cln2 fusion (human)
Method: yeast growth competition, sequencing
Medium: yeast
Setting: strong parent motif
Relative to: not given
Direction: higher = stronger binding
Quantity: normalised enrichment score
Starting sequence: viral docking peptide; KGVKRKLFAEDSS; partner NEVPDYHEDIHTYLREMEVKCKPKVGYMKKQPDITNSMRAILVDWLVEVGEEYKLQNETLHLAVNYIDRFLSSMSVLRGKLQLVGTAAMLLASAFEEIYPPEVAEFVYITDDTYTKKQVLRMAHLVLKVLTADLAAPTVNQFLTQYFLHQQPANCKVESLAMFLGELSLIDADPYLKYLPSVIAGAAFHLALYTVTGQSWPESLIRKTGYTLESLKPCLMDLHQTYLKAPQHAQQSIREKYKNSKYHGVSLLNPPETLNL
Substitution = R5H; value = 0.697
Substitution = R5A; value = 1.23
Substitution = A9N; value = 6.17
Substitution = K4C; value = 6.11
Substitution = L7V; value = 0.862
Substitution = V3P; value = 5.93
Substitution = R5D; value = 0.326
Substitution = K4N; value = 5.79

Sample 2
Target: tungstate, free oxyanion
Method: microfluidic competitive inhibition
Medium: in vitro, cell-free expressed
Concentration: not given
Setting: derived from inhibition constants, unchanged parent 2230 nM
Direction: lower = stronger binding
Quantity: oxyanion analog dissociation constant
Starting sequence: PafA, mature enzyme, eGFP fusion (Elizabethkingia meningoseptica, UniProt Q9KJX5); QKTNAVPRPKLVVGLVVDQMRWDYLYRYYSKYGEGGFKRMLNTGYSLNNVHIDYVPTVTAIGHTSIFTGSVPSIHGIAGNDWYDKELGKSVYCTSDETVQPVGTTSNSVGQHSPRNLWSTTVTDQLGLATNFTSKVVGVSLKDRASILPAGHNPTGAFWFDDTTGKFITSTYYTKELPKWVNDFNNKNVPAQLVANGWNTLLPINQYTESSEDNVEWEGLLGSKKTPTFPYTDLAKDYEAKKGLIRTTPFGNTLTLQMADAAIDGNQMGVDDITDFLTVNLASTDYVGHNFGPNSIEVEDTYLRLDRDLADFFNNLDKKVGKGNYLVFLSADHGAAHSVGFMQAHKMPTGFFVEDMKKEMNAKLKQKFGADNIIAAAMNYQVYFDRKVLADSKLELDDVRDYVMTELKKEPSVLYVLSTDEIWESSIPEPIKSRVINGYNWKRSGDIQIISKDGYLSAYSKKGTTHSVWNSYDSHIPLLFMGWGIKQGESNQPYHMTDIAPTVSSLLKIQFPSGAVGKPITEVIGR
Substitution = P519V; value = 2360 nM
Substitution = T226G; value = 2310 nM
Substitution = T497V; value = 2120 nM
Substitution = G334A; value = 2350 nM
Substitution = S471V; value = 2310 nM
Substitution = S73G; value = 1460 nM
Substitution = H152V; value = 1790 nM
Substitution = L25V; value = 2660 nM

Single results of other studies
Structure (SMILES) = CC(=O)N1CCC(c2ccc(C(=O)NC3=NCCN3)cc2C(F)(F)F)CC1; target = Calcium-dependent protein kinase 1 (CDPK1, Plasmodium falciparum, UniProt P62344); assay = cell-free assay, competition with immobilised ligand; setting = 1 µM; quantity = remaining binding; value = 90%
Structure (SMILES) = O=C1CCC(N2Cc3c(ccc4c3OCC43CCN(Cc4ccccc4)CC3)C2=O)C(=O)N1 (centres unmarked); target = DNA-binding protein Ikaros (Homo sapiens, UniProt Q13422); assay = degrader, HiBiT; test system = HEK293; setting = 3.333 µM, 6 h; quantity = remaining protein; value = 99.1%
Structure (SMILES) = CC(C)(O)c1cncc(-c2nc3ccc(F)cc3n2C2CC2)c1; target = Serine/threonine-protein kinase PknB (pknB, Mycobacterium tuberculosis, UniProt P9WI81); assay = cell-free assay, competition with immobilised ligand; setting = 1 µM; quantity = remaining binding; value = 100%
Structure (SMILES) = CC(=O)C1=C(C)N(c2cccc(C(F)(F)F)c2)C(=O)N[C@H]1c1ccc(C#N)nc1; target = Muscarinic acetylcholine receptor M1 (CHRM1, Homo sapiens, UniProt P11229); assay = ligand displacement; setting = 10 µM; quantity = inhibition; value = -19.4%

Repeated from above (single results of other studies):
Structure (SMILES) = CC(C)(O)c1cncc(-c2nc3ccc(F)cc3n2C2CC2)c1; target = Serine/threonine-protein kinase PknB (pknB, Mycobacterium tuberculosis, UniProt P9WI81); assay = cell-free assay, competition with immobilised ligand; setting = 1 µM; quantity = remaining binding; value = 100%
